Results of several laboratories.
Compare with care: the assays were run in different laboratories. “And” joins repeats or separate records; there may be more than shown. ± marks the error that the study gave.

| SMILES | test | test system | conditions | scale | endpoint | value |
| --- | --- | --- | --- | --- | --- | --- |
| N#Cc1ccc2c(c1)[C@H]1CCCN(C(=O)c3ccc4[nH]cnc4c3)[C@H]1C2 |  | human, urine | 160 mg, 336 h, day 14 over day -1 | reference: placebo and baseline | total urinary corticosteroids | 121 % change |
| COc1c(C)cnc(Cn2cc(C#CCCOP(=O)(O)O)c3c(Cl)nc(N)nc32)c1C | RECIST | colorectal cancer patients | dose not given |  | stable disease duration | 6 months |
| c1ccc(-c2n[nH]cc2-c2ccnc3ccccc23)nc1 | kinase binding, competitor, MIB/MS competition, item: PBS2 | Candida albicans cell lysate | 10 µM | reference: DMSO | log2 fold change | 1.55 |
| CC[C@H](C)[C@H](NC(=O)[C@H](CCC(=O)O)NC(=O)[C@H](C)NC(=O)[C@@H](NC(=O)[C@H](Cc1c[nH]cn1)NC(=O)[C@H]1CCC[C@@H]1NC(=O)[C@H](CCC(=O)O)NC(=O)[C@H](C)NC(=O)[C@H]1CCC[C@@H]1NC(=O)[C@H](CC(C)C)NC(=O)[C@H](Cc1c[nH]cn1)NC(=O)[C@H](Cc1c[nH]cn1)NC(=O)[C@H]1CCC[C@@H]1NC(=O)[C@H](Cc1ccccc1)NC(=O)[C@H](Cc1ccccc1)NC(=O)[C@H](CCCNC(=N)N)NC(=O)[C@H](CCCNC(=N)N)NC(=O)[C@H](CCCNC(=N)N)NC(=O)[C@H]1CCC[C@@H]1NC(=O)[C@H](CC(=O)O)NC(=O)[C@H](CCC(N)=O)NC(=O)[C@@H](NC(=O)C[C@H](Cc1c[nH]c2ccccc12)NC(=O)[C@H](CCCCN)NC(=O)[C@@H](Cc1c[nH]c2ccccc12)NC(=O)[C@H](CC(C)C)NC(=O)[C@H](CC(=O)O)NC(=O)[C@H](Cc1c[nH]cn1)NC(=O)[C@H](CC(C)C)NC(=O)C[C@@H](N)CC(C)C)[C@@H](C)CC)[C@@H](C)O)C(N)=O |  | T410R-hPTH1R mouse | subcutaneous, 500 nmol/kg |  | time to recovery of blood ionized calcium | 8 h |
| CN1CC(Oc2cnc(C#N)cc2-c2ccn3nc(NC(=O)C4CC4)cc3c2)C1 | item: IL-1β, IL-6, TNF | Rag2-/- mouse, anti-CD40 colitis | dose not given, day 7 |  | colon cytokine levels | decreased |
| CC(C)C[C@H](NC(=O)[C@@H](Cc1c[nH]c2ccccc12)NC(=O)[C@H](Cc1ccc(O)cc1)NC(=O)[C@H](CO)NC(=O)[C@H](Cc1c[nH]c2ccccc12)NC(=O)[C@H](Cc1c[nH]cn1)NC(=O)[C@@H]1CCC(=O)N1)C(=O)N[C@@H](CCCNC(=N)N)C(=O)N1CCC[C@H]1C(=O)NCC(N)=O |  | Chinese boys, central precocious puberty | intramuscular, 22.5 mg day 1, month 6, month 6, unchanged Tanner stage II | reference: screening | boys at genital stage | 50% |
| Cc1cc(C)c(CNC(=O)c2cc(Cl)c3c(c2C)O[C@@](C)([C@H]2CC[C@H](N(C)C)CC2)O3)c(=O)[nH]1 | IWG criteria | relapsed/refractory AITL patients | dose not given |  | stable disease as best response | 5% |
| COc1ccc2c(c1)c(CC(=O)O)c(C)n2C(=O)c1ccc(Cl)cc1 |  | mouse carrageenan inflammation | oral, 1 mg/kg |  | paw oedema and hyperalgesia | no effect |
| CCN(O)N=Nc1ccc(S(=O)(=O)Nc2onc(C)c2C)cc1 | carrageenan-induced paw edema | Wistar rat | oral, 100 mg/kg, 4 h after carrageenan, with: carrageenan 1% subplantar | higher = more edema | paw edema volume | 4.19 ± 0.67 a.u. |
| CN[C@@H]1COc2c(S(=O)(=O)NC(=O)Nc3c4c(cc5c3CCC5)CCC4)cnn2C1 | item: IL-1β | human participants, whole blood ex vivo | 450 mg single dose, 48 h, with: LPS/ATP | reference: baseline | inhibition | -45.5% |
| Cc1nn(-c2nc3c(F)cc(F)cc3s2)c(O)c1C(c1ccc(C(F)(F)F)cc1)c1c(C)nn(-c2nc3c(F)cc(F)cc3s2)c1O |  | mouse, cerulein-induced acute pancreatitis | 25 mg/kg | direction not given | total histology score | 1.67 and 0 and 0.667 and 2.33 and 6.33 |
| COc1nc(NCc2cn(-c3ccc(C(=O)Nc4ccc(Cl)cc4)cc3)nn2)nc(OC)n1 | cell viability, MTT | normal colonocytes, rat | 72 h |  | IC50 | 105.8 ± 0.22 nM |
| CC(C)[C@H](C(=O)Nc1ccc(C(=O)NO)cc1)c1ccccc1 | volumetric MRI | human | dose not given, 1512 days |  | tumour volume change | 92.4% |
| N#Cc1ccc2c(-c3ccncc3)c(-c3ccc(F)cc3)nn2c1 | kinase binding, competitor, MIB/MS competition, item: SHA3 | Candida albicans cell lysate | 100 nM | reference: DMSO | log2 fold change | -0.545 |
| O[C@H]1CCCN[C@@H]1CCCn1cnc2c(Cl)c(Cl)ccc21 | ELISA, item: Pro-C3 | healthy human volunteers, serum | intraduodenal, 100 mg twice daily, day 14, multiple ascending dose |  | maximum reduction | 15.6% |
| Cc1c(NC(=O)c2cccnc2)c(=O)n(-c2ccccc2)n1C | histology | Dmd C3333Y mice, triceps | dose not given |  | centrally nucleated fibres | 64% and 61% and 49% and 62% and 57% |
| Cc1ccc(N(O)N=Nc2ccc(S(=O)(=O)Nc3onc(C)c3C)cc2)cc1 | carrageenan-induced paw edema | Wistar rat | oral, 100 mg/kg, 3 h after carrageenan, with: carrageenan 1% subplantar | higher = more edema | paw edema volume | 4.89 ± 0.43 a.u. |
| [Cl-].[Cl-].[Pt+2].[Ru+2].c1ccc(-c2nc3cc4ccccc4cc3nc2-c2ccccn2)nc1.c1cnc2c(c1)ccc1cccnc12.c1cnc2c(c1)ccc1cccnc12 | photoinduced DNA cleavage | supercoiled pcDNA | 250 µM, 0.1 µM pcDNA |  | nicked circular DNA | 17.1% |
| CCCCOc1nc(N)c2c(n1)N(Cc1cccc(CN3CCCC3)c1)CC(=O)N2 |  | human, serum | concentration not given, alone or with vorinostat or cobicistat | reference: baseline | serum cytokines and CRP | no effect |

| SMILES | test | test system | conditions | scale | endpoint | value |
| --- | --- | --- | --- | --- | --- | --- |
| CN(C)C(=O)Oc1cccc([N+](C)(C)C)c1 | neuromuscular block reversal | rat | dose not given, 6 (unit not given), with: cisatracurium | reference: T1 twitch | train-of-four ratio | 41 |
| Oc1ccc(/C=C/c2cc(O)cc(O)c2)cc1 | RT-qPCR, item: BCL2 mRNA | rat, MNU-induced, colon | oral, 10 mg/kg, unit not given | reference: GAPDH | BCL2 mean ΔCq | 0.88 |
| COC(=O)c1sc(-c2cccs2)cc1NC(=O)/C=C/C(=O)O | ELISA | bone marrow-derived macrophages, C57BL/6J mice | dose not given, 48 h, with: LPS 24 h |  | MCP-1 release | decreased |
| CO[C@H]1CC[C@H](N2C(=O)CNc3ncc(-c4ccc(C(C)(C)O)nc4)nc32)CC1 | flow cytometry | stimulated monocytes, human, blood | 30 mg single dose, 1.5 h, mean | reference: baseline | pAKT change from baseline | -47.1% |
| COc1cc(Nc2ncc3c(n2)-c2ccc(Cl)cc2C(c2c(F)cccc2OC)=NC3)ccc1C(=O)O |  | mouse, OS-1 osteosarcoma xenograft | oral, 5.2 mg/kg, day 21 | reference: vehicle | relative tumour volume T/C | 1.97 |
| CCOC(=O)[C@H](CCc1ccccc1)N[C@@H](C)C(=O)N1CCC[C@H]1C(=O)O |  | renal hypertensive rat | sc infusion, 40 mg/kg/day | reference: vehicle | left ventricular end-diastolic volume | increased |
| CCN(O)N=Nc1ccc(S(=O)(=O)Nc2nccs2)cc1 | carrageenan-induced paw edema | Wistar rat | oral, 100 mg/kg, 2 h after carrageenan, with: carrageenan 1% subplantar | higher = more edema | paw edema volume | 6.06 ± 1.66 a.u. |
| Cc1cc(F)cc2c(CCC(=O)N[C@@H]3C(=O)NC[C@H]3O)c(-c3ccc(F)cc3)[nH]c12 |  | mice, APOL1 G2, single copy | oral, 30 mg/kg twice daily, day 8, dosing from day 6, with: IFNγ plasmid injection |  | UACR | 2300 µg/mg |
| CC(C)NCC(O)c1ccc(O)c(O)c1 (centres unmarked) |  | ventricular cardiomyocytes, C57BL/6 mouse | dose not given, 0.42 s |  | sarcomere length | 1.72 µm |
| OC(CCN1CCCCC1)(c1ccccc1)C1CC2C=CC1C2 (centres unmarked) | resting-state EEG | healthy elderly humans | oral, 4 mg, eyes closed, LS mean |  | EEG Alpha1-power Fz-Cz | 4 µV² |
| CCCN(O)N=Nc1ccc(S(=O)(=O)Nc2cc(C)on2)cc1 | carrageenan-induced paw edema | Wistar rat | oral, 100 mg/kg, 1 h after carrageenan, with: carrageenan 1% subplantar | higher = more edema | paw edema volume | 5.71 ± 0.81 a.u. |
| Nc1ccc(O)c(C(=O)O)c1 |  | mice, DSS-induced acute colitis | oral, dose not given, day 15 |  | colon length | 5.94 cm |
| COc1nc(NCc2cn(-c3ccc(C(=O)Nc4ccc(C(F)(F)F)cc4)cc3)nn2)nc(OC)n1 | cell viability, MTT | normal colonocytes, rat | 72 h |  | IC50 | 76.7 ± 3.02 nM |
| C[C@H](Oc1ccc(Br)cc1-c1ccon1)C(=O)O | last response peak | human, tibialis anterior muscle | 50 mg, 15 Hz, single ascending dose |  | difference from placebo | -9.34% |
| C[C@@H](NC(=O)N1C(=O)[C@H](Cc2ccnc(N)c2)[C@H]1C(=O)O)C1CCCCC1 |  | human | iv infusion, 1.0 mg/kg/h, 24 h |  | time to aPTT Emax | 24 h |
| CCCN(O)N=Nc1ccc(S(=O)(=O)Nc2onc(C)c2C)cc1 | carrageenan-induced paw edema | Wistar rat | oral, 100 mg/kg, 2 h after carrageenan, with: carrageenan 1% subplantar | higher = more edema | paw edema volume | 5.88 ± 0.36 a.u. |
| Cc1n[nH]c2ccc(-c3cc(OC[C@@H](N)Cc4ccccc4)cnc3-c3ccoc3)cc12 | kinase binding, competitor, MIB/MS competition, item: MCK1 | Candida albicans cell lysate | 10 µM | reference: DMSO | log2 fold change | -1.02 |
| Cc1cccc(N(O)N=Nc2ccc(S(=O)(=O)Nc3cc(C)on3)cc2)c1 | carrageenan-induced paw edema | Wistar rat | oral, 100 mg/kg, 3 h after carrageenan, with: carrageenan 1% subplantar | higher = more edema | paw edema volume | 4.57 ± 0.53 a.u. |
| C[C@H]1C[C@H]2CSC(N)=N[C@@]2(c2nc(NC(=O)c3ccc(OC(F)F)cn3)cs2)CO1 | item: Aβ1-40 | healthy adults, plasma | 40 mg single dose, 4 h post-dose | reference: placebo | percent change from baseline | -52.9% |

For quick reference, copied from above:
| SMILES | test | test system | conditions | scale | endpoint | value |
| --- | --- | --- | --- | --- | --- | --- |
| COc1nc(NCc2cn(-c3ccc(C(=O)Nc4ccc(C(F)(F)F)cc4)cc3)nn2)nc(OC)n1 | cell viability, MTT | normal colonocytes, rat | 72 h |  | IC50 | 76.7 ± 3.02 nM |
| C[C@H](Oc1ccc(Br)cc1-c1ccon1)C(=O)O | last response peak | human, tibialis anterior muscle | 50 mg, 15 Hz, single ascending dose |  | difference from placebo | -9.34% |
| C[C@@H](NC(=O)N1C(=O)[C@H](Cc2ccnc(N)c2)[C@H]1C(=O)O)C1CCCCC1 |  | human | iv infusion, 1.0 mg/kg/h, 24 h |  | time to aPTT Emax | 24 h |
| CCCN(O)N=Nc1ccc(S(=O)(=O)Nc2onc(C)c2C)cc1 | carrageenan-induced paw edema | Wistar rat | oral, 100 mg/kg, 2 h after carrageenan, with: carrageenan 1% subplantar | higher = more edema | paw edema volume | 5.88 ± 0.36 a.u. |
| Cc1n[nH]c2ccc(-c3cc(OC[C@@H](N)Cc4ccccc4)cnc3-c3ccoc3)cc12 | kinase binding, competitor, MIB/MS competition, item: MCK1 | Candida albicans cell lysate | 10 µM | reference: DMSO | log2 fold change | -1.02 |
